Measurements from different studies.
Protocols differ between the studies behind these lines. ± gives the spread as reported.

SMILES	test system	setting	how to read	tumour growth inhibition
CC(=O)c1c(C)c2cnc(Nc3ccc(N4CCNCC4)cn3)nc2n(C2CCCC2)c1=O	OVCAR-3, mouse xenograft	oral, above 50 mg/kg, not statistically significant	–	22%
Cl.O=C(c1cc(Cc2n[nH]c(=O)c3ccccc23)ccc1F)N1CC(CNC2CC2)C1	BALB/c nude mouse, MX1 xenograft	oral, 25 mg/kg once daily, 23 days	–	62.9%
CNC(=O)c1ccc(N2C(=S)N(c3ccc(C#N)c(C(F)(F)F)c3)C(=O)C2(C)C)cc1F	mouse CWR22Rv1 xenograft	oral, 25 mg/kg once daily, 16 days, 5 days per week	–	54.7%
CC1(C)CCC(CN2CCN(c3ccc(C(=O)NS(=O)(=O)c4ccc(NCC5CCOCC5)c([N+](=O)[O-])c4)c(Oc4cnc5[nH]ccc5c4)c3)CC2)=C(c2ccc(Cl)cc2)C1	mouse RS4;11 xenograft	oral, 5 mg/kg once daily, day 14	–	67%
COc1ccc(F)cc1C(=O)NCc1ccc(-c2nn([C@@H](C)C(F)(F)F)c(N)c2C(N)=O)cc1	OCI-Ly10, mouse xenograft	oral, 50 mg/kg twice daily, day 28, 672 h	–	95%
Nc1nnc(-c2ccccc2O)cc1N1CCN(Cc2ccc(OCCOCCNc3cccc4c3C(=O)N(C3CCC(=O)NC3=O)C4=O)c(F)c2)CC1 (stereo not drawn)	nude mouse, NCI-H2126 xenograft	intraperitoneal, 12.5 mg/kg daily	–	44%
CC#CC(=O)N1CCC[C@H]1c1nc(-c2ccc(C(=O)Nc3ccccn3)cc2)c2c(N)nccn12	TMD8 xenograft, mouse	30 mg/kg twice daily	–	91%
COCc1cc(C(=O)Nc2cc([C@H]3CC[C@@H](OC(=O)NC(C)C)C3)[nH]n2)n(C)n1	MCF7 xenograft, NSG mouse	oral twice daily, low dose	–	52%
C[C@]12CC[C@H](n3ccnc3)CC1=CC[C@@H]1[C@@H]2CC[C@]2(C)C(n3cnc4ccccc43)=CC[C@@H]12.Cl	mouse CWR22Rv1 xenograft	oral, 5 mg/kg once daily, 16 days, 5 days per week	–	74.2%
C=CC(=O)Nc1cc(Nc2nccc(Nc3cc(Cl)c(F)cc3C(C)(C)O)n2)c(OC)cc1N1CC[C@@H](N(C)C)C1	mouse, NCI-H2073 xenograft	oral, 25 mg/kg twice daily, day 14	–	141%
C=CC(=O)Nc1cc(Nc2nccc(Nc3cc(Cl)c(F)cc3C(C)(C)O)n2)c(OC)cc1N1CC[C@@H](N(C)C)C1	NCI-H2073 EGFR SVD knock-in, BALB/c nude mouse, NCI-H2073 xenograft	25 mg/kg twice daily, 21 days	–	89.1%
Cc1n[nH]c2ccc3nc(-c4ccc(C(=O)NCCN(C)C)cc4F)c4c(c3c12)CCCC4	MV4-11 xenograft, mouse	oral, 30 mg/kg once daily, 29 days	baseline: vehicle	80.5%
C[C@@H]1COCCN1c1cc([C@]2(O)C[C@H]3CC[C@@H](C2)O3)c2cnn(-c3cc[nH]n3)c2n1	SUM149PT xenograft, mouse	30 mg/kg QD x3, day 42	–	80.4 ± 2.5%
C=CCn1c(=O)c2cnc(Nc3ccc(N4CCN(C)CC4)cc3)nc2n1-c1ccc2c(n1)[C@@](O)(CC)CC2	OVCAR-3 xenograft, NOD/SCID mouse	100 mg/kg once daily, :3	–	102%
Cc1ncsc1-c1ccc(CNC(=O)[C@@H]2C[C@@H](O)CN2C(=O)[C@@H](NC(=O)CCCCCCCCCC(=O)N2CCN(CC[C@H](NC(=O)C3(N)CCN(c4ncnc5[nH]ccc45)CC3)c3ccc(Cl)cc3)CC2)C(C)(C)C)cc1	nude mouse, MDA-MB-468 xenograft	75 mg/kg	baseline: vehicle	> 80%
COc1cc(-c2cc(C(C)=O)n3ccccc23)c(OC)cc1Cn1ccnc1	mouse MV4-11 xenograft	oral, 40 mg/kg, 120 h, dosed five days then stopped	–	60.6%
O=C1CC[C@H](N2Cc3cc(N4CCN(CC5CCN(c6ccc([C@@H]7c8ccc(O)cc8CC[C@@H]7c7ccccc7)cc6)CC5)CC4)ccc3C2=O)C(=O)N1	mouse xenograft models	oral, dose not given, monotherapy	–	≥ 85%
CCCCc1nc2cc(/C=C/C(=O)NO)ccc2n1CCN(CC)CC	mouse, MOLM-13 subcutaneous xenograft	75 mg/kg every other day, day 7	–	25%

For quick reference, copied from above:
SMILES	test system	setting	how to read	tumour growth inhibition
Nc1nnc(-c2ccccc2O)cc1N1CCN(Cc2ccc(OCCOCCNc3cccc4c3C(=O)N(C3CCC(=O)NC3=O)C4=O)c(F)c2)CC1 (stereo not drawn)	nude mouse, NCI-H2126 xenograft	intraperitoneal, 12.5 mg/kg daily	–	44%
